Assay results of several laboratories.
Numbered parts are unrelated; each lists some results of a single study.
UniProt P42685, sequence (whole entry, looked up): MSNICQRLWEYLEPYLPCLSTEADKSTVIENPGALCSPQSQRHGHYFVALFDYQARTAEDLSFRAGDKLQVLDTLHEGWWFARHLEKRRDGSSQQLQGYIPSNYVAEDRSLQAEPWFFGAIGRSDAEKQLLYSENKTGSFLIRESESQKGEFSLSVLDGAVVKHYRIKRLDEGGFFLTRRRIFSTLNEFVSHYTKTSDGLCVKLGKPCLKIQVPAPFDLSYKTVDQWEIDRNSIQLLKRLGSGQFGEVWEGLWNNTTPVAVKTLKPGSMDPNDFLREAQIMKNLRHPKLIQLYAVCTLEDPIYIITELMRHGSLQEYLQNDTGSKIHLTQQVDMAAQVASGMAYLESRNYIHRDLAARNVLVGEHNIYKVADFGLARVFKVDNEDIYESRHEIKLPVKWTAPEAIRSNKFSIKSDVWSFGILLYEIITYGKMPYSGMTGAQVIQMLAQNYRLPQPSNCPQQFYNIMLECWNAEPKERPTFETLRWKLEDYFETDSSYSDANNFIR
UniProt Q32MK0, sequence (whole entry, looked up): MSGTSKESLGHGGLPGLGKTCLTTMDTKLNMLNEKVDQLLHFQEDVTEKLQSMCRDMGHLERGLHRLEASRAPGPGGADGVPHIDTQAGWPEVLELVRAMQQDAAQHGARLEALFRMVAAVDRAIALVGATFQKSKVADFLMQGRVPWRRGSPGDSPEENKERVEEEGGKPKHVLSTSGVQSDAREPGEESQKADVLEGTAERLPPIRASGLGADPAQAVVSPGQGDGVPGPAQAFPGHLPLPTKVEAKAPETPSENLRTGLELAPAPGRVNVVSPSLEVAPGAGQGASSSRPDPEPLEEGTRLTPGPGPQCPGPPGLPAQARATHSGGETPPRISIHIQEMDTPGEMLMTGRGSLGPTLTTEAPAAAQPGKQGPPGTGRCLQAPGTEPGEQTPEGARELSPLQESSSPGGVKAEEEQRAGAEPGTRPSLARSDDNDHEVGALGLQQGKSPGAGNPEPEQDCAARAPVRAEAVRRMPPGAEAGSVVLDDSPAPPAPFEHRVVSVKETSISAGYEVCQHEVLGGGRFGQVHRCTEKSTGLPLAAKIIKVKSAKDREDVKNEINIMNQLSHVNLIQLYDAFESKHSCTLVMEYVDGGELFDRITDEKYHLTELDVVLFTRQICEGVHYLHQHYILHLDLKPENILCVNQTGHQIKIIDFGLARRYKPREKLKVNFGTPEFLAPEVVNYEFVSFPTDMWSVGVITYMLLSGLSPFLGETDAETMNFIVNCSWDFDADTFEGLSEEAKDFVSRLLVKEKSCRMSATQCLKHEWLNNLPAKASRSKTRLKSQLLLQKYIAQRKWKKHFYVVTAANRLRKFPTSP
UniProt P10721, sequence (whole entry, unmodified, looked up): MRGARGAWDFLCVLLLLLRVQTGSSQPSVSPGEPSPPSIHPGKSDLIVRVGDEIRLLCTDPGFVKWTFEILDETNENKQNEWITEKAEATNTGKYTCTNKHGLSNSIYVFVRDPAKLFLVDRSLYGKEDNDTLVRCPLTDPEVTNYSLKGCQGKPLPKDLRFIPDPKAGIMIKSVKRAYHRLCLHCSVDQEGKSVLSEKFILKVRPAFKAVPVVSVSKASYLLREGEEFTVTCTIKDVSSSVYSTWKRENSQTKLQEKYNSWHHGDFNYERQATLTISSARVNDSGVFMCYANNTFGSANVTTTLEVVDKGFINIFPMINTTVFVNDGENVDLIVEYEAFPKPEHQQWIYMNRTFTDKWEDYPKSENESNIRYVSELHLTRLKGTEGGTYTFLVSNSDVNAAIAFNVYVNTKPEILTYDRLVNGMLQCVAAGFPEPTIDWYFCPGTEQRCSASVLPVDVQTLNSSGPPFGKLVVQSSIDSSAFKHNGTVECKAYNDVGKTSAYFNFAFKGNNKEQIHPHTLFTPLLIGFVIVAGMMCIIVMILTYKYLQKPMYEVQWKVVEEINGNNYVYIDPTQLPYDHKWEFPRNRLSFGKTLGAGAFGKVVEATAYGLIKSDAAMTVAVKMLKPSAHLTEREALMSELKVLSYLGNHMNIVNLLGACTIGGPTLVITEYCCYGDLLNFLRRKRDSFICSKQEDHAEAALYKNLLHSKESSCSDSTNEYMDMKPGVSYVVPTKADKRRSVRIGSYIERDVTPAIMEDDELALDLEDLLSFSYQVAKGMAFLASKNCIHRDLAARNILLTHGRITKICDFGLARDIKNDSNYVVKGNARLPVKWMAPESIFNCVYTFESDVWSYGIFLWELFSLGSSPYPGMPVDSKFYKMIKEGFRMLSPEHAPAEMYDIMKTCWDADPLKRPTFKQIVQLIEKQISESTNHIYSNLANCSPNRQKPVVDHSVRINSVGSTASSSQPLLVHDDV
UniProt Q9BRS2, sequence (whole entry, looked up): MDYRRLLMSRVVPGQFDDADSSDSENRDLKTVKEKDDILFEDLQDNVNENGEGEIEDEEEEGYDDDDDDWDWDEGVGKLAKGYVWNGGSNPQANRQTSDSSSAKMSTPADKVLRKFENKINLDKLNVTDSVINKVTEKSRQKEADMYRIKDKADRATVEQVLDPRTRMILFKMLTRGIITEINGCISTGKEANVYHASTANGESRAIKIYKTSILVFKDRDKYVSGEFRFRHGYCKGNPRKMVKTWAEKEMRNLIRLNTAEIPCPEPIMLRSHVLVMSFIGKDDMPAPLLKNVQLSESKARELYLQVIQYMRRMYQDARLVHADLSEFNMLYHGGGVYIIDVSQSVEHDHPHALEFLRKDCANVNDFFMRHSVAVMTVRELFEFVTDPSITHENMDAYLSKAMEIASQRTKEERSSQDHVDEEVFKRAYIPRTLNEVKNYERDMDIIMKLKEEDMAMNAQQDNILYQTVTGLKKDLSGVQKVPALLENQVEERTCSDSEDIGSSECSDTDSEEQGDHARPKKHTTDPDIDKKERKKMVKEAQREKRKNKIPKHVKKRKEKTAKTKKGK
UniProt P45983, sequence (whole entry, looked up): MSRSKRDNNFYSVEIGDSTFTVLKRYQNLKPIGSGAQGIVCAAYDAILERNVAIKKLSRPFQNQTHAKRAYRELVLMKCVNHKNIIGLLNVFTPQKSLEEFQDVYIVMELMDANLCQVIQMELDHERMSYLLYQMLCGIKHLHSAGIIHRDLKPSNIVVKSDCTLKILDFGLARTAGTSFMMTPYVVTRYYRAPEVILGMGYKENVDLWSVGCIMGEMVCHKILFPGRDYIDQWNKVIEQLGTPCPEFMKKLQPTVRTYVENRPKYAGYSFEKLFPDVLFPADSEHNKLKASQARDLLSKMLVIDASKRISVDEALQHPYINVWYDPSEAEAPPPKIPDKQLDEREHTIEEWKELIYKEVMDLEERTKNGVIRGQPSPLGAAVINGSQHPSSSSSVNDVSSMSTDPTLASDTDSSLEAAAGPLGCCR
UniProt P16234, sequence (whole entry, looked up): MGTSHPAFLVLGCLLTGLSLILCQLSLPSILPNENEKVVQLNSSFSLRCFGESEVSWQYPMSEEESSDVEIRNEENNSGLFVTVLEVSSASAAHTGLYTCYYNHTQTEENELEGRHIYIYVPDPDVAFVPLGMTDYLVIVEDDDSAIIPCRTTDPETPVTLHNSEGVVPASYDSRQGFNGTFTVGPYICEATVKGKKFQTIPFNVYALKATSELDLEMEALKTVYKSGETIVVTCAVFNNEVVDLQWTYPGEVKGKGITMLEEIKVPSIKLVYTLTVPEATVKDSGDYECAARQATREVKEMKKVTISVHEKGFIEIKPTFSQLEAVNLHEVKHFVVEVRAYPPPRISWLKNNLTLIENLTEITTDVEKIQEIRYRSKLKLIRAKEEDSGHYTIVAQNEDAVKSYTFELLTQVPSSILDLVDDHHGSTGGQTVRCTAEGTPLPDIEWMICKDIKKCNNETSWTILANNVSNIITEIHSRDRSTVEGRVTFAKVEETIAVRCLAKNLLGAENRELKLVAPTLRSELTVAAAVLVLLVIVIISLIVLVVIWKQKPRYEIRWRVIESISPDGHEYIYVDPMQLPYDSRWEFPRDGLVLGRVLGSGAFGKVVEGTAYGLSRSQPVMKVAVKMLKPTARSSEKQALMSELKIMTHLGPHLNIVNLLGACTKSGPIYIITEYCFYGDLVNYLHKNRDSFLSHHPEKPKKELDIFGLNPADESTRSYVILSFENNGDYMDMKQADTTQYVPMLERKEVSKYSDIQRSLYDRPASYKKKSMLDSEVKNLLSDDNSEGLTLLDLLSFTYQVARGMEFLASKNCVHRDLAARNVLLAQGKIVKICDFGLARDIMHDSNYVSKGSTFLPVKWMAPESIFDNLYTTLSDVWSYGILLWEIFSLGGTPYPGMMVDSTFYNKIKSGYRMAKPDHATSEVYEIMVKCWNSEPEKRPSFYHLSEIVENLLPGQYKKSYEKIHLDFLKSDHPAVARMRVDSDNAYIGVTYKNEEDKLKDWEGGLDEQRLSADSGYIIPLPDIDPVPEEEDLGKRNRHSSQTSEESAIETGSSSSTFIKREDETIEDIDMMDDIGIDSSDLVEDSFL

Sample 1
Target: MAP kinase-activated protein kinase 5 (MAPKAPK5, Homo sapiens, UniProt Q8IW41)
UniProt Q8IW41, sequence (whole entry, looked up): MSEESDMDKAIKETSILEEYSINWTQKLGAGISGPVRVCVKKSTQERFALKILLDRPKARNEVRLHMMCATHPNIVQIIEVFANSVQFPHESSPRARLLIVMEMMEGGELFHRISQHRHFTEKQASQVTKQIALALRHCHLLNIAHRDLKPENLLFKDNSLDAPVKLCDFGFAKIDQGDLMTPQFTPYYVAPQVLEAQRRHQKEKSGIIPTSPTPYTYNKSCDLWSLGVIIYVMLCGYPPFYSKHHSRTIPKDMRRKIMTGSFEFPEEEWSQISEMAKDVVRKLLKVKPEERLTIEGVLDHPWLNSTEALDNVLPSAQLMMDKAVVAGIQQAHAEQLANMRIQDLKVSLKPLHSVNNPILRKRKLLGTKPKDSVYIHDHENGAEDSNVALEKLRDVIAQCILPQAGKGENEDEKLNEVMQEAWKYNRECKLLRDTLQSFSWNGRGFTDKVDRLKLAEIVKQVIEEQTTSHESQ
Read-out: enzyme activity
Mode: inhibitor
Tested at: 0.5 µM
Relative to: control
Quantity: remaining activity
O=c1c(-c2ccc(F)cc2)c(-c2ccncc2)[nH]n1-c1ccc(Cl)cc1: 99.7%
O=C1c2ccccc2-c2nc3nnnn3nc21: 66.9%
O=Nc1c(-c2c(O)[nH]c3ccccc23)[nH]c2ccccc12: 101%
CC(C)n1cnc2c(Nc3cccc(Cl)c3)nc(NCCO)nc21: 68.6%
CNc1cc2c(Nc3cccc(Br)c3)ncnc2cn1: 99.3%
N#CC(c1ccnc(NCCc2cccnc2)n1)c1nc2ccccc2s1 (stereo not drawn): 98.3%
C[C@@H](N)[C@H]1CC[C@H](C(=O)Nc2ccncc2)CC1: 90.8%
c1cc(-c2cnn3cc(-c4ccc(OCCN5CCCCC5)cc4)cnc23)ccn1: 91.3%

Sample 2
Cell line: Huh-7
Tested at: 10 µM
Time: 24 h
Quantity: viability
Cc1ccccc1OCC(O)CO (stereo not drawn): 101%
CC1(C)NC(=O)N(c2ccc([N+](=O)[O-])c(C(F)(F)F)c2)C1=O: 96.2%
CCc1nc(N)nc(N)c1-c1ccc(Cl)cc1: 65.4%
CCC[C@H](N[C@@H](C)C(=O)N1[C@H](C(=O)O)C[C@@H]2CCCC[C@@H]21)C(=O)OCC: 99.2%
CN(C)CC[C@@H](c1ccc(Cl)cc1)c1ccccn1: 89.2%
CO[C@@]12[C@H](COC(N)=O)C3=C(C(=O)C(C)=C(N)C3=O)N1C[C@@H]1N[C@@H]12: 56.6%

Sample 3
SMILES: Cc1nc(C2CCN(C(=O)c3ccc(OC(F)(F)F)cc3N)CC2)c2ncc(N3CCN(C)CC3)cc2n1
Technique: competition with immobilised ligand
Tested at: 1 µM
Quantity: remaining binding
Homeodomain-interacting protein kinase 4 (HIPK4, Homo sapiens, UniProt Q8NE63); cell-free assay: 88%
Mast/stem cell growth factor receptor Kit (KIT, Homo sapiens, UniProt P10721, V559D); cell-free assay: 93%
Serine/threonine-protein kinase RIO1 (RIOK1, Homo sapiens, UniProt Q9BRS2); cell-free assay: 100%
Tyrosine-protein kinase ABL1, non-phosphorylated (ABL1, Homo sapiens, UniProt P00519, F317I); binding: 100%
Cyclin-dependent kinase 18 (CDK18, Homo sapiens, UniProt Q07002); cell-free assay: 100%
Atypical kinase COQ8A, mitochondrial (COQ8A, Homo sapiens, UniProt Q8NI60); cell-free assay: 100%
Protein kinase C iota type (PRKCI, Homo sapiens, UniProt P41743); cell-free assay: 81%
Platelet-derived growth factor receptor alpha (PDGFRA, Homo sapiens, UniProt P16234); cell-free assay: 100%
Serine/threonine-protein kinase ULK1 (ULK1, Homo sapiens, UniProt O75385); cell-free assay: 49%
Myosin light chain kinase (MYLK3, Homo sapiens, UniProt Q32MK0); cell-free assay: 100%
Mitogen-activated protein kinase 1 (MAPK1, Homo sapiens, UniProt P28482); cell-free assay: 98%
Tyrosine-protein kinase FRK (FRK, Homo sapiens, UniProt P42685); cell-free assay: 95%
Mitogen-activated protein kinase 8 (MAPK8, Homo sapiens, UniProt P45983); cell-free assay: 98%
Mitogen-activated protein kinase kinase kinase 20 (MAP3K20, Homo sapiens, UniProt Q9NYL2); cell-free assay: 95%

Sample 4
Read-out: AlphaScreen signal
Technique: AlphaScreen counter screen
Medium: His6 peptide without bromodomain
Tested at: 50 µM
Setting: assay interference check
Quantity: inhibition
CC(C)c1cc(/C=C(\C#N)C(=O)NCCCc2ccccc2)cc(C(C)C)c1O: 19.9%
CN(C)c1cccc(-c2nc(-c3ccncc3)cnc2N)c1: 38.9%
Cc1nc(Nc2n[nH]c3c2CN(C(=O)N[C@H](CN(C)C)c2ccccc2)C3(C)C)c2sccc2n1: 18.6%
CN1CCC(CNc2ccc3ncc(-c4cccc(OC(F)(F)F)c4)n3n2)CC1: 31.4%
CCc1cnn2c(NCc3ccc[n+]([O-])c3)cc(N3CCCC[C@H]3CCO)nc12: 10%
O=C1Nc2ccccc2C1=C1Nc2ccccc2C1=NO: 83.7%
Br.Br.CCOc1ccc(Nc2nc(-c3c(C)nc4ccccn34)cs2)cc1: 85.2%
Cc1cc(Nc2cc(CN3CCOCC3)c3nc(C)c(Cc4ccc(Cl)cc4F)n3n2)n[nH]1: 34.4%

A few entries again (sample 3):
Serine/threonine-protein kinase RIO1 (RIOK1, Homo sapiens, UniProt Q9BRS2); cell-free assay: 100%
Tyrosine-protein kinase ABL1, non-phosphorylated (ABL1, Homo sapiens, UniProt P00519, F317I); binding: 100%
Mitogen-activated protein kinase kinase kinase 20 (MAP3K20, Homo sapiens, UniProt Q9NYL2); cell-free assay: 95%
Platelet-derived growth factor receptor alpha (PDGFRA, Homo sapiens, UniProt P16234); cell-free assay: 100%
Myosin light chain kinase (MYLK3, Homo sapiens, UniProt Q32MK0); cell-free assay: 100%
Homeodomain-interacting protein kinase 4 (HIPK4, Homo sapiens, UniProt Q8NE63); cell-free assay: 88%
